Results collected from several papers.
“And” joins repeats or separate records; there may be more than shown. ± gives the spread as reported.
HDAC1: Histone deacetylase 1 (HDAC1, Homo sapiens, UniProt Q13547)
PPARG: Peroxisome proliferator-activated receptor gamma (PPARG, Homo sapiens, UniProt P37231)
PPARG ligand-binding domain: Peroxisome proliferator-activated receptor gamma, ligand-binding domain (PPARG, Homo sapiens, UniProt P37231)
Rhomboid protease AarA: Rhomboid protease AarA (Providencia stuartii, UniProt P46116)

| Structure (SMILES) | tested on | assay | test system | setting | scale | quantity | result |
| --- | --- | --- | --- | --- | --- | --- | --- |
| Cc1nc2c(F)cc(-c3nc(Nc4ccc(CC(=O)NCCCCC(=O)NO)cc4)ncc3F)cc2n1C(C)C | HDAC1 | enzyme activity, inhibitor |  |  |  | IC50 | 44 nM |
| CC1(F)CN(C(=O)Cn2c(=O)c(C(=O)NCc3ccc(Cl)cc3)cc3nc(N4CCN(CCN)C4=O)cnc32)C1 | Voltage-gated inwardly rectifying potassium channel KCNH2 (KCNH2, Homo sapiens, UniProt Q12809) | ion current, automated patch clamp |  | retest |  | IC50 | > 40000 nM |
| Cc1nc2c(F)cc(-c3nc(Nc4ccc(NC(=O)CCCCCCC(=O)O)cc4)ncc3F)cc2n1C(C)C | HDAC1 | enzyme activity, inhibitor |  |  |  | IC50 | 15 nM |
| Cc1c(Cc2cccc(OC(C)(C)C(=O)O)c2)c2ccc(C(=O)NCc3cccc(C(C)(C)C)c3)cc2n1CC1CCC1 | PPARG | ligand displacement, TR-FRET |  |  |  | IC50 | 0.21 nM |
| CC[C@H](C)[C@@H]1NC(=O)[C@H](Cc2ccccc2)NC(=O)CCSCc2cccc(c2)CSCCNC(=O)[C@H](Cc2c[nH]cn2)NC(=O)[C@H](Cc2ccc(O)cc2)NC(=O)[C@H](CC(=O)O)NC(=O)[C@H](Cc2ccc(F)cc2)NC(=O)[C@H](CC(C)C)NC(=O)[C@H](CCCCN)NC1=O | Melanoma-associated antigen 4, MHD; with RAD18 (Homo sapiens, UniProt P43358) | protein-protein interaction, NanoBRET | HEK293 | 1.5 h |  | IC50 | 1620 nM |
| Cc1c(Cc2cccc(OC(C)C(=O)O)c2Cl)c2ccc(C(=O)NC(C)c3ccc(C(C)(C)C)cc3)cc2n1C (stereo not shown) | PPARG ligand-binding domain | reporter gene, luciferase reporter | HEK293T, Gal4-PPARγ LBD |  |  | IC50 | 42800 nM |
| COC1CN([C@H]2CC[C@H]([C@@]3(C)Oc4c(Cl)cc(C(=O)NCc5c(SC)cc(C)[nH]c5=O)c(C)c4O3)CC2)C1 |  | RNA-seq, refers to: YPEL4 | human, whole blood | dose not given, 24 h | relative to: pretreatment baseline | log2 fold change | 2.79 |
| COC1C(c2ccc(Cl)c(Cc3ccc(OC4CCOC4)cc3)c2)OC(CO)C(O)C1O (stereo not shown) | Sodium/glucose cotransporter 2 (SLC5A2, Homo sapiens, UniProt P31639) | transporter uptake, inhibitor, radiometric |  |  |  | IC50 | > 100 nM |
| CCOc1cc(CN2CC3(CC(N4CCC(C(=O)O)CC4)=NO3)C2)cc(OCC)c1-c1ccc(F)cc1 | Somatostatin receptor type 5 (SSTR5, Homo sapiens, UniProt P35346, F264A) | cAMP level, antagonist, GloSensor | AD293 | F264A mutant, bandwidth 6.51, added: CST17 EC80 and forskolin |  | IC50 | 550 nM |
| COc1ccc(C(=O)c2c(C(=O)NCCCN(C)C)oc3ccc(Cl)cc3c2=O)cc1OC | Growth hormone secretagogue receptor type 1 (GHSR, Homo sapiens, UniProt Q92847) | receptor internalization, bystander BRET |  | 60 min |  | IC50 | 41.7 nM |
| O=C(COc1ccc2ccccc2c1)NCc1ccc(OP(=O)(O)O)cc1 | Signal transducer and activator of transcription 5B, SH2 (STAT5B, Homo sapiens, UniProt P51692) | ligand displacement, FP |  |  |  | IC50 | 102000 nM |
| Cc1c(Cc2cc(OC(C)C(=O)O)ccc2Cl)c2ccc(C(=O)NC(C)c3ccc(C(C)(C)C)cc3)cc2n1C (stereo not shown) | PPARG ligand-binding domain | reporter gene, luciferase reporter | HEK293T, Gal4-PPARγ LBD |  |  | IC50 | 536000 nM |
| O=C(Nc1c[nH]nc1C(=O)NC1CCNCC1)c1cc(F)cc(F)c1 | Glycogen synthase kinase-3 alpha (GSK3A, Homo sapiens, UniProt P49840) | target engagement in cells, BRET |  |  |  | IC50 | 10 nM |
| Cc1nc2cc(C(=O)N[C@@H](C)c3ccc(C(C)(C)C)cc3)ccc2n1Cc1cccc(OC(C)(C)C(=O)O)c1 | PPARG | ligand displacement, TR-FRET |  |  |  | IC50 | 12 nM |
| Fc1ccc(Nc2nc(NC3CCCCC3)c3ccccc3n2)cc1F | Beta-2 adrenergic receptor (ADRB2, Homo sapiens, UniProt P07550) | cAMP production, antagonist, GloSensor |  | added: isoproterenol 1 µM |  | IC50 | > 50000 nM |
| Cc1nc2c(F)cc(-c3nc(Nc4ccc(C(=O)NCCCCCCCC(=O)NO)cc4)ncc3F)cc2n1C(C)C | HDAC1 | enzyme activity, inhibitor |  |  |  | IC50 | 11 nM |
| COc1ccc(CNC(=O)C(C(F)(F)F)C(F)(F)F)cc1 | Rhomboid protease AarA | enzyme activity, inhibitor, fluorescence |  |  |  | IC50 | 15000 nM |

| Structure (SMILES) | tested on | assay | test system | setting | scale | quantity | result |
| --- | --- | --- | --- | --- | --- | --- | --- |
| CC[C@H](C)[C@@H]1NC(=O)[C@H](Cc2ccccc2)NC(=O)CSC[C@@H](C(N)=O)NC(=O)[C@H](CC(N)=O)NC(=O)[C@H](Cc2c[nH]cn2)NC(=O)[C@H](Cc2ccc(O)cc2)NC(=O)[C@H](C)NC(=O)[C@H](Cc2ccc(F)cc2)NC(=O)[C@H](CC(C)C)NC(=O)[C@H](CCCCN)NC1=O | Melanoma-associated antigen 4, MAGE homology domain (Homo sapiens, UniProt P43358) | binding, inhibitor, TR-FRET displacement |  | added: Alexa647-MTP-1 |  | IC50 | 323 ± 190 nM |
| CC(=O)NCCNC(=O)c1ccccc1NC(=O)C(C(F)(F)F)C(F)(F)F | Rhomboid protease AarA | enzyme activity, inhibitor, fluorescence |  |  |  | IC50 | 36000 nM |
| CCCC(=O)OC1CCC2(C)C(CCC3(C)C2CC=C2C4C(C)C(C)CCC4(C(=O)O)CCC23C)C1(C)C (stereo not shown) | UDP-glucuronosyltransferase 2B17 (UGT2B17, Homo sapiens, UniProt O75795) | enzyme activity, inhibitor |  |  |  | IC50 | > 100000 nM |
| Cc1nn(-c2cccc(N)c2)c(=O)c2cnc(Nc3ccc(N4CCNCC4)cc3)nc12 | Serine/threonine-protein kinase 25 (STK25, Homo sapiens, UniProt O00506) | enzyme activity, inhibitor |  |  |  | IC50 | 2940 nM |
| C[C@H](NC(=O)C(C(F)(F)F)C(F)(F)F)c1ccccc1 | Rhomboid protease AarA | enzyme activity, inhibitor, fluorescence |  |  |  | IC50 | 17000 nM |
| Cc1c(Cc2ccc(OC(C)C(=O)O)cc2)c2ccc(C(=O)N[C@@H](C)c3cccc(C(C)C)c3)cc2n1C (stereo partly shown) | PPARG ligand-binding domain | reporter gene, luciferase reporter | HEK293T, Gal4-PPARγ LBD |  |  | IC50 | 6760 nM |
| COc1ccc(C(=O)Nc2ccc(Nc3cc(C)nc(N4CCCC4)n3)cc2)cc1 | Beta sliding clamp (Escherichia coli, UniProt P0A988) |  |  |  |  | IC50 | 58900 ± 2500 nM |
| CCCSc1nc(Sc2nnc(C)s2)c2nnn(CCO)c2n1 | Lysine-specific histone demethylase 1A (KDM1A, Homo sapiens, UniProt O60341) | enzyme activity, inhibitor, fluorescence |  |  |  | IC50 | 3940 nM |
| CC1(C)CCC(CN2CCN(c3ccc(C(=O)NS(=O)(=O)c4ccc(NCC5CCOCC5)c([N+](=O)[O-])c4)c(Oc4cnc5[nH]ccc5c4)c3)CC2)=C(c2ccc(Cl)cc2)C1 | Induced myeloid leukemia cell differentiation protein Mcl-1 (MCL1, Homo sapiens, UniProt Q07820) | binding, inhibitor, TR-FRET competition |  |  |  | IC50 | > 10000 nM |
| O=C1CC(c2ccccc2)N1S(=O)(=O)c1cccc(-c2ccccc2)c1 (stereo not shown) | Rhomboid protease AarA | enzyme activity, inhibitor, fluorogenic peptide |  | 15 min pre-incubation |  | IC50 | 40000 nM |
| Cc1c(Cc2cccc(OC(C)(C)C(=O)O)c2)c2ccc(C(=O)N[C@@H](C)c3cccc(Br)c3)cc2n1C | PPARG | ligand displacement, TR-FRET |  |  |  | IC50 | 0.7 nM |
| O=C(Nc1cccnc1)c1ccccc1NC(=O)C(C(F)(F)F)C(F)(F)F | Rhomboid protease AarA | enzyme activity, inhibitor, fluorescence |  |  |  | IC50 | 6000 nM |
| Cc1c(Cc2ccc(O[C@H](C)C(=O)O)c(Cl)c2)c2ccc(C(=O)N[C@@H](C)c3ccc(C(C)(C)C)cc3)cc2n1C | PPARG ligand-binding domain | reporter gene, luciferase reporter | HEK293T, Gal4-PPARγ LBD |  |  | IC50 | 18800 nM |
| O=C(O)COc1ccccc1NC(=O)C(C(F)(F)F)C(F)(F)F | Rhomboid protease AarA | enzyme activity, inhibitor, fluorescence |  |  |  | IC50 | 16000 nM |
| Cc1c(Cc2cc(Cl)cc(O[C@@H](C)C(=O)O)c2)c2ccc(C(=O)N[C@@H](C)c3ccc(C(C)(C)C)cc3)cc2n1CC1CCC1 | PPARG | ligand displacement, TR-FRET |  |  |  | IC50 | 11.6 nM |
| CNC(=O)c1ccc(NC(=O)C(C(F)(F)F)C(F)(F)F)cc1 | Rhomboid protease AarA | enzyme activity, inhibitor, fluorescence |  |  |  | IC50 | 29000 nM |
| Cc1nnc(-c2ccc(CC(=O)NCCOCCOCC(=O)NC(CCN3C4CCC3CC(n3c(C)nnc3C(C)C)C4)c3ccccc3)cc2)nn1 (stereo not shown) | C-C chemokine receptor type 5 (CCR5, Homo sapiens, UniProt P51681, Y184K) | calcium mobilisation, inhibitor | HEK293T expressing CCR5 | added: PSC-RANTES |  | IC50 | 12.8 nM and 31.6 nM and 29.7 nM |

Excerpt of the above:
| Structure (SMILES) | tested on | assay | test system | setting | scale | quantity | result |
| --- | --- | --- | --- | --- | --- | --- | --- |
| CC1(C)CCC(CN2CCN(c3ccc(C(=O)NS(=O)(=O)c4ccc(NCC5CCOCC5)c([N+](=O)[O-])c4)c(Oc4cnc5[nH]ccc5c4)c3)CC2)=C(c2ccc(Cl)cc2)C1 | Induced myeloid leukemia cell differentiation protein Mcl-1 (MCL1, Homo sapiens, UniProt Q07820) | binding, inhibitor, TR-FRET competition |  |  |  | IC50 | > 10000 nM |
| O=C1CC(c2ccccc2)N1S(=O)(=O)c1cccc(-c2ccccc2)c1 (stereo not shown) | Rhomboid protease AarA | enzyme activity, inhibitor, fluorogenic peptide |  | 15 min pre-incubation |  | IC50 | 40000 nM |
| Cc1c(Cc2cccc(OC(C)(C)C(=O)O)c2)c2ccc(C(=O)N[C@@H](C)c3cccc(Br)c3)cc2n1C | PPARG | ligand displacement, TR-FRET |  |  |  | IC50 | 0.7 nM |
| O=C(Nc1cccnc1)c1ccccc1NC(=O)C(C(F)(F)F)C(F)(F)F | Rhomboid protease AarA | enzyme activity, inhibitor, fluorescence |  |  |  | IC50 | 6000 nM |
